Measurements collected from several papers.
Values joined by “and” are separate records of one study, mostly repeats; a detail may differ.
Target: Fibroblast growth factor receptor 4 (FGFR4, Homo sapiens, UniProt P22455)

| Compound | observed | action | method | concentration | reference | endpoint | value |
| --- | --- | --- | --- | --- | --- | --- | --- |
| CCN1CCN(Cc2ccc(C(=O)Nc3ccc(C)c(NCc4cnc5[nH]ccc5c4OC)c3)cc2C(F)(F)F)CC1 | binding |  | competition with immobilised ligand | 1 µM |  | remaining binding | 15% |
| CNC(=O)C1CCN(c2cc(C)c(F)cc2NC(=O)c2ccc(-c3cc(O)ccc3C)c(C)c2)CC1 | binding |  | competition with immobilised ligand | 1 µM |  | remaining binding | 100% |
| Nc1ncc(-c2cc(-c3cnn(CC(F)(F)F)c3)ncc2F)nc1C(=O)NC1CNCC(F)C1 (stereo not shown) | enzyme activity |  |  | 1 µM | DMSO control | remaining activity | 104% |
| O=C(Cc1ccc(OCc2ccccc2)cc1)NC1(C(=O)O)CCN(C(=O)c2ccc(-c3cccc(Cl)c3)cc2)CC1 | enzyme activity | inhibitor |  | 10 µM |  | activity vs control | 145% |
| Cc1cccc(O[C@H]2CCC[C@@H](C(C)CNCc3ccncc3)C2)c1 (relative stereo) | cell-free assay |  |  | 1 µM |  | inhibition | 14% |
| C=CC(=O)N1Cc2nc(-c3cc(-c4cc(Cl)cnc4Cl)c(F)cc3F)n(-c3ccncn3)c2C1 | cell-free assay |  |  | 1 µM |  | inhibition | 4.2% |
| NC(=O)[C@@H](O)C[C@H]1CCc2sc3ncnc(O[C@H]4CC[C@H](N5CCOCC5)CC4)c3c21 | enzyme activity | inhibitor |  | 10 µM |  | inhibition | 3% |
| CNC1C[S+]2CC[S+]3CC[S+](C1)[Ru-4]321([N]=C=S)[n]2c3ccc(OC)cc3c3c4c(c5cc(F)c[n+]1c5c32)C(=O)NC4=O (stereo not shown) |  |  | KinomeScan | 0.1 µM | untreated | remaining binding | 100% |
| C=CC(=O)Nc1cccc(-c2cnc3[nH]cc(C(=O)NC(C)(C)C)c3n2)c1 | kinase activity |  |  | 0.1 µM |  | inhibition | 5% and 16% |
| COc1c(OCCCN2CCOCC2)ccc2c1N=C(NC(=O)c1cnc(N)nc1)N1CCN=C21 | kinase activity | inhibitor |  | 1 µM | untreated control | remaining activity | 94% |
| CN1CCN(c2ccc(Nc3ncc(Cl)c(Nc4ccccc4P(C)(C)=O)n3)cc2Br)CC1 | enzyme activity | inhibitor |  | 0.1 µM |  | inhibition | 30.1% |
| COc1ccc(NC(=O)Nc2ccc3c(c2)C(=O)N(C(C)CO)CC(C)C(CN(C)Cc2ccc4c(c2)OCO4)O3)cc1 (stereo not shown) | kinase activity |  |  | 0.03 µM | control | remaining activity | 107% |
| COc1c(Cl)cccc1Nc1c(-c2ccncc2C#C[C@@]2(C)CCCN2C(=O)/C=C/CN(C)C)[nH]c2c1C(=O)NCC2 | cell-free assay |  | competition with immobilised ligand | 3 µM |  | remaining binding | 98% |
| C=CC(=O)N1CCc2ccc(-n3c(=O)ccc4cnc5ccc(-c6cnn(C)c6)cc5c43)cc21 |  |  | KINOMEscan | 1 µM | DMSO control | remaining binding | 95% |
| Cc1nc2c(F)cc(-c3nc(Nc4ccc(CNC(=O)CCCCCCC(=O)NO)cc4)ncc3F)cc2n1C(C)C | enzyme activity | inhibitor |  | 1 µM |  | inhibition | 2% |
| CN1CCN(Cc2ccc(-c3ccc(CO[C@H]4CCC[C@@H]4NC(=O)c4cc(-c5cnn(C)c5)cnc4N)cc3)cc2)CC1 | enzyme activity | inhibitor |  | 0.1 µM |  | inhibition | 8% |

Some of these lines once more:
| Compound | observed | action | method | concentration | reference | endpoint | value |
| --- | --- | --- | --- | --- | --- | --- | --- |
| CNC1C[S+]2CC[S+]3CC[S+](C1)[Ru-4]321([N]=C=S)[n]2c3ccc(OC)cc3c3c4c(c5cc(F)c[n+]1c5c32)C(=O)NC4=O (stereo not shown) |  |  | KinomeScan | 0.1 µM | untreated | remaining binding | 100% |
| COc1c(OCCCN2CCOCC2)ccc2c1N=C(NC(=O)c1cnc(N)nc1)N1CCN=C21 | kinase activity | inhibitor |  | 1 µM | untreated control | remaining activity | 94% |
